Results from different studies.
Every numbered part comes from another study and shows a few of its results, in no order.

Study 1
Target: Interferon regulatory factor 7, full length, phosphomimetic (IRF7, Homo sapiens, UniProt Q92985, residues 1-503, S101K/S471D/S472D/S475D/S476D/S477D/S483D/S484D/S487D)
Chain of UniProt Q92985 (whole entry, unmodified, looked up): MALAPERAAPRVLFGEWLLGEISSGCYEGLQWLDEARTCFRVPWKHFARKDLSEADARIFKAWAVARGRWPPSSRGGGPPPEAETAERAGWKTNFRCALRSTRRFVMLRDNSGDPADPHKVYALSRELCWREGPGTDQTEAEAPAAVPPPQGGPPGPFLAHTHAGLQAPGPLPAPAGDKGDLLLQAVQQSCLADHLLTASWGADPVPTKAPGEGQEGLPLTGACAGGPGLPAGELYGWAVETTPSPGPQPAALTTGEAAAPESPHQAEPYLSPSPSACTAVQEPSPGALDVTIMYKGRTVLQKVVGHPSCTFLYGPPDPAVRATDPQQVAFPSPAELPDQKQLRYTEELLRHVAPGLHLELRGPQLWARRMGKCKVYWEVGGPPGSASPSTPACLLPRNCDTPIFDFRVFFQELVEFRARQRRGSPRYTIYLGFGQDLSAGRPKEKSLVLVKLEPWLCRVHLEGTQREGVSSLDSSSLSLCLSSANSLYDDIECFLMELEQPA
Technique: protein-binding microarray
Form: double-stranded DNA, one strand shown
Medium: in vitro
Tested at: 250 nM
Notes: 60-bp whole probe
With: salmon DNA 0.4 mg/ml
Baseline: random background probes
Direction: higher = stronger binding
Measurement: log fluorescence
All sequences stand within: GCCTAGCAC … GTCTTGATTCGCTTGACGCTGCTG
GACGATTACAGTTCCGAGACGTGCTAG: 0.195 z-score
GACGAACTGGGGACTGGATACGTGCTA: -0.379 z-score
TTAGGTTTCCTACTGGTTTAGTGCTAG: 0.828 z-score
TTAGATATCGGGTATCGAGTAGTGCTA: 0.427 z-score
TCTTTCACAAGACGAAAGGAGTGCTAG: 2.1 z-score
GACGGTCTACTTTTCCTGACGTGCTAG: 0.247 z-score
TTAGGACTGCTTATCGTTTAGTGCTAG: 0.215 z-score
GACGATTTCGGGTATCGAGATGTGCTA: 1.07 z-score
GACGGTATCGGACTGAGGACGTGCTAG: -0.0956 z-score
GATGGACTGGGGTTTCGGGACGTGCTA: 1.01 z-score
ACCAAAATCAAGTCTGGGCTAGTGCTA: -0.496 z-score
CCTCTTTTTTGTTCCACGCCGTGCTAG: 1.44 z-score
TGCAACATCCCAATGGCCCTGTGCTAG: -0.233 z-score
TGAGGTTTCCTACTGCTTTAGTGCTAG: 0.641 z-score
GACGGTATCTGTCTCGGGACGTGCTAG: -0.186 z-score
TCAGATTTCGGGACTGGATTAGTGCTA: 0.282 z-score
TTAGATTCGAGTTTCGATTAGTGCTAG: 11.6 z-score
GACGAACTGGGGTTTCGATACGTGCTA: 4.21 z-score
CTCTTGATCCCGAACTGGCCGTGCTAG: 0.433 z-score
GATGATTTCAGTTCCGAGACGTGCTAG: 0.701 z-score
TTAGATATTGGGTTTCGATTAGTGCTA: 6.43 z-score
TTAGGTATCCTACTGCTATAGTGCTAG: 0.213 z-score
GACGGTATCGACTTTCGTGACGTGCTA: 1.09 z-score
GACGAACTGAGTTTCGAGAAGTGCTAG: 1.15 z-score
TCAATTTTCAGTATTACACTGTGCTAG: 0.552 z-score

Study 2
Target: Ras GTPase-activating protein-binding protein 1, full length (G3BP1, Homo sapiens, UniProt Q13283)
Chain of UniProt Q13283 (whole entry, looked up): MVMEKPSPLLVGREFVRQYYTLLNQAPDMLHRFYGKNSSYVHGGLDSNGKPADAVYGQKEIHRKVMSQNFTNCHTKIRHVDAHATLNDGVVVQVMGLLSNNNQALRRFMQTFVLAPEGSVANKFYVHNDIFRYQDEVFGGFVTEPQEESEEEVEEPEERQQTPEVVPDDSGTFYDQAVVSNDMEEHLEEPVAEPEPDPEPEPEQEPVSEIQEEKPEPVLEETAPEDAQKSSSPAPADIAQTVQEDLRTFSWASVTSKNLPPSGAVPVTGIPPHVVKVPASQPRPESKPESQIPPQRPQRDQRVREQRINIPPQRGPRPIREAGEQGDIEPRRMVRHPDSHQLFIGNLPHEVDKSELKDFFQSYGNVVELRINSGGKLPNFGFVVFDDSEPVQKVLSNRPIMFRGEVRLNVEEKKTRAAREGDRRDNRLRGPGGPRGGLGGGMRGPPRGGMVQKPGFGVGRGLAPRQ
Technique: RNA Bind-n-Seq
Form: RNA
Medium: in vitro
Tested at: 200 nM
Notes: whole 134-nt RNA, ends assumed
With: 150 mM LiCl
Baseline: input library
Direction: higher = stronger binding
Measurement: log2 enrichment
All molecules: 7-deaza-guanosine replaces G
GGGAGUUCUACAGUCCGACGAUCACCAUGCAGGUGGGCAUCUUUGGGAAGUGGGGCAAGGGGCGGAUAGGGAGGGGGGUAACACUUUGGGAACAGGUGGUCCCAGGUCGUUUCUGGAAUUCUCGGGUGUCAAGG: 0.287
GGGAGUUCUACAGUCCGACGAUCGUCCUGUGCUACACAUCGUAUGUACCGAAUCGGGUUUUUUUGGGAAAAAAAGGGUGGGAAAGUAUUAUGUUACGCCGUUCGGAUCUGCACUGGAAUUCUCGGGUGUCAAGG: -1.91
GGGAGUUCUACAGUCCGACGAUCCACAGACAACACGCACCCACACAGACAAAGAGGGAAGGGGUUGGGAUGGGGACAGGGUGCACAGCAGGGCGGGGUAGGACCCCAGCCCCUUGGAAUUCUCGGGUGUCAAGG: -0.22
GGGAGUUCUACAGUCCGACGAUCGUCCUGUGCUACACAUCGUAUGUACCGAAUCGGAAAAAGGGGAAAAAGGGAAAAAGGGGAAAGUAUUAUGUUACGCCGUUCGGAUCUGCAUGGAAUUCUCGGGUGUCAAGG: -0.0809
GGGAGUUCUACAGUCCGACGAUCAAGUCCUGUGCUACACAUCGUAUGUACCGAAUCGGGGUUUGGGGUGGGGAAAGGGGAAAGUAUUAUGUUACGCCGUUCGGAUCUGCACUUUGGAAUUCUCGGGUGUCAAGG: 0.416
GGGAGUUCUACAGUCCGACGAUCACCAUGCAGGUGGGCAUCUUUGGGAAGUGGGGCAAGGGGGGGAUAGGGAGGGGGGUAACACUUUGGGAACAGGUGGUCCCAGGUCGUCUCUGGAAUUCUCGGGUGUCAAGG: -0.107
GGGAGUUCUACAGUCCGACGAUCCUCAAGUCCUGUGCUACACAUCGUAUGUACCGAAUCGGGGUGGGGUGGGUGGGAAAGUAUUAUGUUACGCCGUUCGGAUCUGCACUUCCAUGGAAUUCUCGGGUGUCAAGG: -1.08
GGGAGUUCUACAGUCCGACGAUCAGUCCUGUGCUACACAUCGUAUGUACCGAAUCGGGGAAAAAGGAAAAAGGGAAAAAGGAAAGUAUUAUGUUACGCCGUUCGGAUCUGCACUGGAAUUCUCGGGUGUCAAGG: -0.439
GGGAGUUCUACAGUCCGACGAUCUCAAGUCCUGUGCUACACAUCGUAUGUACCGAAUCGGGAAAGGGUGGGUUUGGGAAAGUAUUAUGUUACGCCGUUCGGAUCUGCACUUCCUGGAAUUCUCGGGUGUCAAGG: -0.458
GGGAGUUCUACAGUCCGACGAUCUCCUGUGCUACACAUCGUAUGUACCGAAUCGGAAAAAAAGGAAAAAAAGGUUUUUUUGGAAAGUAUUAUGUUACGCCGUUCGGAUCUGCAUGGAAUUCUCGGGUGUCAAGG: -1.89
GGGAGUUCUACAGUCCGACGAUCAGUCCUGUGCUACACAUCGUAUGUACCGAAUCGGGGAAAAAAAGGGGUGGGGAGGGGAAAGUAUUAUGUUACGCCGUUCGGAUCUGCACUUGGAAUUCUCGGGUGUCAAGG: 0.126

Study 3
Target: Centromere-binding protein 1, full length, His-tagged (CBF1, Saccharomyces cerevisiae, UniProt P17106, residues 1-351)
Chain of UniProt P17106 (whole entry, looked up): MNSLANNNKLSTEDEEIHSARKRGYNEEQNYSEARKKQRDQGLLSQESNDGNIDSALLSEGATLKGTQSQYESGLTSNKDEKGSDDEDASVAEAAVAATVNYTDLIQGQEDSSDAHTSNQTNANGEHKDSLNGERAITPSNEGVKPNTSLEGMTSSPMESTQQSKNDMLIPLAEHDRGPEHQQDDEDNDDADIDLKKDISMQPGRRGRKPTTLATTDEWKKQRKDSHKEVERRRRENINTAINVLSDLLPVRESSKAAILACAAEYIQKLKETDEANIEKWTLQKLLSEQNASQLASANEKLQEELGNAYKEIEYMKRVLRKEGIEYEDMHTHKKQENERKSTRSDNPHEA
Technique: competition protein-binding microarray
Form: double-stranded DNA, one strand shown
Medium: in vitro
Tested at: 2 µM
Notes: whole 60-bp probe, lowest competitor level
With: Pho4 competitor, 0.05 µM
Direction: higher = stronger binding
Measurement: fluorescence intensity
CATCACCTTCCTTAGCACGGGTTCTTGCTGTCTGCTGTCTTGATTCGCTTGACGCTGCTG: 126 a.u.
CTTCAACAACATCGGCACGGGAGTGGGATTTAGCGGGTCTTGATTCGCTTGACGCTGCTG: 106 a.u.
CGGGGTTAAGTTTTTCACGTGCGTTGCTTGCAGCAGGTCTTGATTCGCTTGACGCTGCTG: 494 a.u.
GGAGCCCTTGCACTCCACGTGGCCTGCCTCCCTGGGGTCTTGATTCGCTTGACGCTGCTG: 444 a.u.
ACTGCAGTAATTCTCCACATGGGCCCAGCCACTGAGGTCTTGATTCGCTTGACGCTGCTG: 76.4 a.u.
ATGATGACAGGATAGCATGTGCTTTTCGACGGCTGAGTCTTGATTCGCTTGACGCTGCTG: 122 a.u.
ATTAAAGAAAAATTAAACGTGATGGGTCTATCGAGCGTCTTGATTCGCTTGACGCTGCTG: 297 a.u.
AAATTACTAAGTTGGATCGTGGGTGACGCCGTATGAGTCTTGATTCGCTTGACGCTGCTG: 63.9 a.u.
AAAGCGGTAATTTTTCACGTGAGTTCACATATCTATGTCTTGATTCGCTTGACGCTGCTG: 914 a.u.
TGCGCAACAACTTACCACGTGTTTTTATGTCTAGAAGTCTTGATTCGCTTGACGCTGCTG: 1740 a.u.
ACAAGAACACCATCCCAGGTGATAGGAGTGCTCTTTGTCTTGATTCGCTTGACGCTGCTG: 59.9 a.u.
TCTGATTCGTTAAAATACGTGATGGTGTTATTTTTAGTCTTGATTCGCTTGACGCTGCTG: 112 a.u.
AAATTACTAAGTTGACATGTGGGTGACGCCGTATGAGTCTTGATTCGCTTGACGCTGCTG: 98.8 a.u.
ATTGAAAGCGCCCGGATCGTGCCAGTATTTACCACCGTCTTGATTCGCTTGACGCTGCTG: 87.1 a.u.
TTACCATGCCAATCAAACGTGCAAAAAAGATGAGTAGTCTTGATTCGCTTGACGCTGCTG: 96.9 a.u.
CGTCCTAGTGATTGTCACCGTACTTCCATGAGGAAGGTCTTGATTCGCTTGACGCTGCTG: 71.5 a.u.
CTTTCCCGATCTTTTCACGTGTGGTTAGCACATTTGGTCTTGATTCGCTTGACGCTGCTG: 605 a.u.
CTTCTGTAAATTTGTCACTCAACTTGACGCGCCCCGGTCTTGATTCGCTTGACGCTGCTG: 74 a.u.
CATACCCAACCTTGCGACGTGGGTGAAGATATTTGTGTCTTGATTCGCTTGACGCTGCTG: 78 a.u.
CATACCCAACCTTGTCACGACACTTAAGATATTTGTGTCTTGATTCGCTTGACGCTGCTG: 233 a.u.

Study 4
Target: Sal-like protein 4, full length isoform B (SALL4, Homo sapiens, UniProt Q9UJQ4-2, residues 1-616)
Technique: universal PBM
Form: double-stranded DNA, one strand shown
Medium: in vitro
Tested at: not given
Notes: 8-mer, flanks averaged, mean of replicates
Direction: higher = stronger binding
Measurement: E-score
TGTCGCAA: 0.14
AATGCGGC: -0.144
CAGAGCAA: -0.05
ATCCAATC: 0.126
CCTATCAA: 0.153
AACCTAGA: 0.0228
CTTAGAGC: -0.0624
ACATACCG: -0.0536
ATGTCCTC: 0.138
AGTAAAGG: 0.0631
GTGCAATA: 0.259
CGGTGCCC: -0.407
AACATTGG: 0.0437
GAGCTGGC: -0.296
ATTGAGCG: -0.0898
ATGCCCAG: -0.128
AACAGCAG: 0.0514

Study 5
Target: Prothrombin, mature alpha-thrombin (F2, Homo sapiens, UniProt P00734)
Technique: aptamer microarray, sandwich
Form: DNA with 2'F-ANA
Medium: in vitro
Tested at: 200 nM
Notes: whole 15-mer aptamer, many near background
With: Cy3 exosite-II aptamer, 400 nM
Direction: higher = stronger binding
Measurement: mean fluorescence intensity
Strand: GGTTGGTGTGGTTGG
2'F-ANA at 1 4 8 10 12: 68 a.u.
2'F-ANA at 2 4 8 12 15: 816 a.u.
2'F-ANA at 2 3 4 11 13 15: 449 a.u.
2'F-ANA at 1 2 3 4 5 7 10 14 15: 130 a.u.
2'F-ANA at 2 3 4 6 9 10 12: 255 a.u.
2'F-ANA at 1 3 6 7 8 9 10 14: 61.4 a.u.
2'F-ANA at 2 3 4 5 7 8 10 11 14: 48.6 a.u.
2'F-ANA at 2 4 5 6 8 10 11 13: 45.2 a.u.
2'F-ANA at 1 2 3 4 6 7 10 11 13 14 15: 48.6 a.u.
2'F-ANA at 1 2 3 4 6 10 13 15: 60 a.u.
2'F-ANA at 1 2 5 7 8 9 11 12 13 14: 50.9 a.u.
2'F-ANA at 2 6 8 9 10 12 13: 149 a.u.
2'F-ANA at 1 5 6 8 9 11 12 15: 89.1 a.u.
2'F-ANA at 1 4 6 7 9 10 13 15: 49.3 a.u.
2'F-ANA at 2 3 4 5 6 8 9 11 13 15: 61.5 a.u.
2'F-ANA at 1 5 6 7 8 9 15: 89.6 a.u.
2'F-ANA at 1 3 5 6 7 13 15: 56 a.u.
2'F-ANA at 1 2 3 6 7 8 9 14: 75.9 a.u.
2'F-ANA at 3 4 11 13 14: 318 a.u.
2'F-ANA at 1 5 6 8 9 11: 57 a.u.
2'F-ANA at 1 2 6 7 8 9 12 14 15: 75.6 a.u.
2'F-ANA at 1 2 5 6 7 9 12 13 14: 47.1 a.u.
2'F-ANA at 1 3 6 7 15: 242 a.u.
2'F-ANA at 1 2 5 7 10 12 15: 46.7 a.u.

A few entries again (study 4):
ATGTCCTC: 0.138
AACCTAGA: 0.0228
CTTAGAGC: -0.0624
AGTAAAGG: 0.0631
AACAGCAG: 0.0514
CCTATCAA: 0.153
